{"data": "Published values pooled from the literature", "note": "Numbered parts are unrelated; each lists some results of a single study. Substitutions count along the parent as printed."}
{"data": "Study 1", "target": "Histone acetyltransferase KAT6A, winged helix 2, GST fusion (KAT6A, Homo sapiens, UniProt Q92794, residues 85-181)", "method": "protein binding microarray", "form": "double-stranded DNA, one strand shown", "matrix": "in vitro", "tested at": "not given", "notes": "8-mer, flanks averaged, mean of 2 arrays, mostly near background", "baseline": "not given", "direction": "higher = stronger binding", "Construct (chain)": "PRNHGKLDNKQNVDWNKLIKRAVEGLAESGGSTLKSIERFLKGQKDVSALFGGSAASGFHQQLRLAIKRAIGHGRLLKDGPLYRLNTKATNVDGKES"}
{"Oligonucleotide": "CCAGGCAG", "E-score": 0.111}
{"Oligonucleotide": "AATCCTGG", "E-score": -0.0406}
{"Oligonucleotide": "AATGAGAA", "E-score": 0.0565}
{"Oligonucleotide": "AGAGTAGG", "E-score": -0.129}
{"Oligonucleotide": "CAGCACGC", "E-score": 0.167}
{"Oligonucleotide": "AAATGGCA", "E-score": 0.127}
{"Oligonucleotide": "ATCACTTG", "E-score": -0.214}
{"Oligonucleotide": "GTTTCAAA", "E-score": 0.0583}
{"data": "Study 2", "target": "RING finger protein unkempt homolog, zinc fingers 1-6, GST-SBP tag (UNK, Homo sapiens, UniProt Q9C0B0, residues 30-357)", "method": "RNA Bind-n-Seq", "form": "RNA", "matrix": "in vitro", "tested at": "not given", "notes": "RNA with constant flanks, ends assumed", "baseline": "input RNA pool", "direction": "higher = stronger binding", "chain of UniProt Q9C0B0 (30-357, looked up)": "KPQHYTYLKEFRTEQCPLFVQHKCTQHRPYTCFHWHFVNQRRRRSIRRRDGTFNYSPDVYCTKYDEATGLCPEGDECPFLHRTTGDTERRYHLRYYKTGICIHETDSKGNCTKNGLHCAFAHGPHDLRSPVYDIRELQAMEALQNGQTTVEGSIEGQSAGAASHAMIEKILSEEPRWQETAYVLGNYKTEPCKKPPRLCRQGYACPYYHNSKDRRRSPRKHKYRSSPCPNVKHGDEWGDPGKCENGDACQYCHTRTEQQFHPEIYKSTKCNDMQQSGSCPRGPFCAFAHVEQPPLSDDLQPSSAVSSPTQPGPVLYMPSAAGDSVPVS"}
{"Oligonucleotide": "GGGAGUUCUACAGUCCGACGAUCUCUGAUGGUGACCAUCAAGUUCCAGCUCCUUCAGGAAACAAAGCAGCUCUUUUGGAUCAAAUCCGAGAGGGUGCUCAGCUGAAAAAAGUGGAACAGAAUAGCCGGCCCGUGUCCUGCUCACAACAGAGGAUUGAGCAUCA", "bound/input enrichment [ratio]": 0.106}
{"Oligonucleotide": "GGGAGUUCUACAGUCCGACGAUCAAUGUCAUCGAUGCCAAUUUCUGCAUGAAAGGAGAAGACCUGGACUCUCAGGUUGGAGUUACCGAUUUUUCGAUGUAUCUCAAAGAUGGAAACAGUAGUAAAGGUAGUGAAGGGGAUGGACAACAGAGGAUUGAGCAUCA", "bound/input enrichment [ratio]": 0.761}
{"Oligonucleotide": "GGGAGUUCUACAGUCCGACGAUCUCUGAAUCUGAACAGGCUCUUAAAGGUACUUCUCAGAUUAAAUUACUCUCAUCUGAAGAUACCGAAGGGAUGCGACUUGUAUGUAGGCUUGCUAGAGAAGUUUUGGAUGUUGCUGCCGGCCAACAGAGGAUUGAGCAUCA", "bound/input enrichment [ratio]": 0.376}
{"Oligonucleotide": "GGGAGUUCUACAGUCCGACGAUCUUCACACUGGAUUACAACUACCCACUUUGUGCAGUACAGGCCUUUGGCAUCGGUCUUUCCCGCUUUGACAGUAAGCUGGCGUGUGAAUGAGAGAACAGUCAGGCAGGGAGCCCUUCUCCCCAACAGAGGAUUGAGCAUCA", "bound/input enrichment [ratio]": 0.23}
{"Oligonucleotide": "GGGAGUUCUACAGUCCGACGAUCCCAAUGGAACCACAAGGGACUUUAGAUAUCACUCAGCAAGAUACUGCCAAAGGUGAUCAACCCGAAAGAAUUUCUAAUGGACCUGUAUUAACUUUGGGUGGUUCAUCUGUGAGCAGUAUACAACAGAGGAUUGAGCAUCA", "bound/input enrichment [ratio]": 0.182}
{"Oligonucleotide": "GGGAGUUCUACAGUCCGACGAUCAAAGUGAUGACUAUGUUUGUCCAACGACAGGUAUUUUCGGAGAGCAAAGAUGAGAUUGCGUCCGUCCUCUAUGGCACAGAUGGCACUGAUAAUGCCCUUGCUGGCAAGGACCAGUAUCAGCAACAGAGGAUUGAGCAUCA", "bound/input enrichment [ratio]": 0.11}
{"Oligonucleotide": "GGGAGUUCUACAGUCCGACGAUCAAAUUAGUGGGCAAAGAAACAUUCUAUGUUGGAGCUGCAAAGACAAAAGCGACCAUAAAUACCGACGCUAUCAGUGGUUUUGCUUAUGAAUAUACUCUGGAAAUUAAUGGGAAAAGUCUCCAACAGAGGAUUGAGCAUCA", "bound/input enrichment [ratio]": 0.315}
{"Oligonucleotide": "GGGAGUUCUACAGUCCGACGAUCGAAAGAACUGUUCCAAGAAUAUUUGUCAAUGGUACUUUUAUUGGAGGUGCAACUGACACUCACCGGCUUCACAAAGAAGGAAAAUUGCUCCCACUAGUUCAUCAGUGUUAUUUAAAAAAACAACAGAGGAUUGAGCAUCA", "bound/input enrichment [ratio]": 2.71}
{"Oligonucleotide": "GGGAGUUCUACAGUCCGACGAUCGGUGUUGCGAGUAUAGGAGGCAAAAUUGCACCCUGUUGAAAACCACCACCUUAGAUCAUCCCGGUUUUACUUUUAGGAUAAGACACUUGAGGGAAAGGCUGUGAAACUGAACCUCUGUUACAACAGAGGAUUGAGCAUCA", "bound/input enrichment [ratio]": 0.272}
{"data": "Study 3", "target": "CCNE2, cyclin fold, Cln2 fusion (human)", "method": "yeast growth competition, sequencing", "matrix": "yeast", "notes": "weak parent motif", "baseline": "not given", "direction": "higher = stronger binding", "starting sequence": "SAMHD1 docking peptide (human); ASKSRVQLFKDDP"}
{"Substitution": "K3Y", "normalised enrichment score": 0.344}
{"Substitution": "D11H", "normalised enrichment score": -0.0671}
{"Substitution": "Q7L", "normalised enrichment score": 0.155}
{"Substitution": "K10T", "normalised enrichment score": 0.106}
{"Substitution": "D11V", "normalised enrichment score": 0.674}
{"Substitution": "R5P", "normalised enrichment score": -0.505}
{"Substitution": "K10P", "normalised enrichment score": -0.000471}
{"data": "Single results of other studies"}
{"Substance": "PhoQ, residues 284 288 289 292 302 303 ASTSDA", "target": "PhoP, residues 12 14 15 18 19 TPLRH (Escherichia coli, UniProt P23836)", "test": "Sort-seq, measured: YFP reporter", "test system": "E. coli", "conditions": "PhoQ-PhoP variant library, added: 10 µM Mg2+", "how to read": "baseline: high Mg2+ state, higher = stronger signaling", "quantity": "fold induction", "value": 1.54}
